Measured values of several laboratories.
Compare with care: the assays were run in different laboratories. “And” joins repeats or separate records; there may be more than shown. Numbers after ± are the reported error.

CC(C)OCCOCc1ccc(OCC(O)CN(N=O)C(C)C)cc1 (stereo not shown)  fold change (duplex sequencing, measured: mutation frequency; NMRI mouse, liver; oral, 284.5 mg/kg/day, 4 weeks; relative to: vehicle): 1.74
COC(=O)[C@@]1(C(C)C)C=C(C(=O)Nc2cccc(C(=O)Nc3ccc(Nc4nccc(-c5cccnc5)n4)c(C)c3)c2)C(=O)CC1  compound remaining (rat, plasma; 1 µM, 20 min): 96.8% and 99.3%
CC(=O)N([O-])CCCCCNC(=O)CCC(=O)N([O-])CCCCCNC(=O)CCC(=O)N([O-])CCCCCN.[89Zr+4]  tracer uptake (mouse, bone; 1 h): 0.09 %ID/g
CC(C(=O)O)n1nc(Cn2cc3cc(OCC[18F])c(Cl)cc3n2)c2ccccc2c1=O (racemic)  tissue uptake (Sprague-Dawley rat male, fat; 60 min): 0.03 ± 0.02 %ID/g
O=C(Nc1cnccc1-c1ccc([18F])cc1)c1ccnc(NC(=O)C2CC2)c1  mean SUV (ex vivo gamma counting; FVB/NJ mice, both sexes, caudate nucleus; intravenous, 120 min, together with: tariquidar 15 mg/kg iv): 0.25
CC(C)(c1cc(Br)c(O)c(Br)c1)c1cc(Br)c(O)c(Br)c1  milk fat partition ratio (cow whole milk; 20 nM; relative to: milk fat over skim milk): 22.1
O=C([O-])CN1CCN(CC(=O)[O-])CCN(C(CO)C(O)CO)CCN(CC(=O)[O-])CC1.[Dy+3] (stereo not shown)  cumulative fecal excretion (ICP-MS; cynomolgus monkey, feces; 2 days post-injection; relative to: dose): 0.2%
Cc1nn(-c2nc3c(F)cc(F)cc3s2)c(O)c1C(c1ccc(C(F)(F)F)cc1)c1c(C)nn(-c2nc3c(F)cc(F)cc3s2)c1O  dose-normalised Cmax (ICR mouse, plasma; oral, 50 mg/kg): 1420 kg·ng/mL/mg and 1900 kg·ng/mL/mg and 2120 kg·ng/mL/mg
Cc1cc(-c2ccc(C(=O)[C@@H]3CCCC[C@H]3C(=O)Nc3cnn4c3C(=O)NCC4)cc2)[nH]n1  cumulative recovery of radioactivity (human, faeces; oral, 200 mg, 0-192 h; relative to: dose): 73.2%
Cc1cc(C)n(CCN(CCN)CCCCCCNC(=O)[C@@H](N)Cc2c[nH]cn2)n1.[99Tc+].[C-]#[O+].[C-]#[O+].[C-]#[O+]  tumour-to-tissue ratio (BALB/c nude mice A549 xenograft; intravenous, 15 min; relative to: tumour over bone): 7
COC1CN([C@H]2CC[C@H]([C@@]3(C)Oc4c(Cl)cc(C(=O)NCc5c(SC)cc(C)[nH]c5=O)c(C)c4O3)CC2)C1  AUC(0-t) (female CB17 SCID mice, KARPAS-422 xenograft, plasma; 25 mg/kg, day 1): 1990 ng·h/mL
CC(C)C[C@H](NC(=O)[C@@H](CCCCNC(=O)[C@@H](Cc1ccccc1)NC(=O)CCCCCCCNC(=O)CN1CCN(CC(=O)O)CCN(CC(=O)O)CCN(CC(=O)O)CC1)NC(=O)[C@H](Cc1ccc(O)cc1)NC(=O)[C@H](CO)NC(=O)[C@H](Cc1c[nH]c2ccccc12)NC(=O)[C@H](Cc1c[nH]cn1)NC(=O)[C@@H]1CCC(=O)N1)C(=O)N[C@@H](CCCNC(=N)N)C(=O)N1CCC[C@H]1C(=O)NCC(N)=O [indium-111 labelled]  tumour-to-tissue ratio (male athymic nude mice, DU-145 prostate cancer xenograft, tumour; intravenous, 0.037 MBq, 1 h; relative to: tumour over blood): 1.52
C=Cc1c(C)c2cc3nc(c(CC(=O)OCCOCCOCCOC)c4[nH]c(cc5nc(cc1[nH]2)C(C)=C5CC)c(C)c4C(=O)O)[C@@H](CCC(=O)OCCOCCOCCOC)[C@@H]3C  compound loss (LC-MS; methanol-water 9:1; 1 h, pH 8.0): 18%
[123I]c1ccc2nc(-c3ccc(-n4ccnn4)nc3)cn2c1  tracer uptake (male Wistar rat, stomach; intravenous, 4 MBq, 14 h): 0.059 %ID/g
O=C(c1ccccc1)N1C(c2ccc(OCC3CCN(CCCF)C3)cc2)c2ccc(O)cc2CC12CC2 (stereo not shown)  MRT(0-inf) (C57BL/6J mouse, plasma; intraperitoneal, 25 mg/kg, group mean): 2.2 h
CN1CCC[C@]1(C)/C=C/S(=O)(=O)NC(=O)Nc1c2c(cc3c1CC(O)C3)CCC2 (stereo partly shown)  Tmax at first steady-state dose (human, plasma; oral, 100 mg twice daily of parent drug, day 14, metabolite of dosed drug): 4 h
O=C(OC(C(F)(F)F)C(F)(F)F)N1CCC(CNS(=O)(=O)c2ccc(Cl)cc2)CC1  Cmax (male SCID mouse, plasma; oral, 10 mg/kg): 218 ng/mL
C#CC(C)NC(=O)C(CC(C)(C)F)NC(c1ccc(-c2ccc(S(C)(=O)=O)cc2)cc1)C(F)(F)F (stereo not shown)  cysteine adduct formation (MES buffer; 100 µM, 23 h, pH 5.5, 37 °C, together with: cysteine 10 mM): < 1%
C=C(NC(=O)c1csc(-c2nc3c(cc2O)-c2nc(cs2)C(=O)NC(C(C)O)C(=O)NC(=C(C)OC)c2nc(cs2)C(=O)NC2c4nc(cs4)C(=O)NC(COC(=O)c4c5c6c(cccc6n4O)COC(=O)C(OC4CC(C)(O)C(N(C)C)C(C)O4)C2OC5)c2nc-3cs2)n1)C(N)=O (stereo not shown)  MRT(0-t) (ICR mice, Streptococcus pneumoniae ATCC 49169 infected, immunocompromised, blood; intravenous, 8 mg/kg/day once daily): 2.94 h
CNc1nc(N)nc2c1ncn2C1OC(CO)C(O)C1(C)F (stereo not shown)  Cmax, geometric mean (healthy adult humans, plasma; oral, 550 mg once daily, day 6, fasted, given alone): 922 ng/mL
CN1CCC[C@]1(C)/C=C/S(=O)(=O)NC(=O)Nc1c2c(cc3c1CCC3)CCC2  subjects with adverse event (measured: Headache, possibly related; human; oral, 50 mg twice daily, 14 days, multiple ascending dose): 16.7%
COc1cccc(OC)c1-c1cc(C(=O)NC2(C(=O)O)C3CC4CC(C3)CC2C4)nn1-c1ccc(C(=O)N(C)CCCN(C)C(=O)[C@H](CCCCNC(=O)[C@H](CC(C)C)NC(=O)C2OC2C(=O)O)NC(=O)CN2CCN(CC(=O)[O-])CCN(CC(=O)[O-])CCN(CC(=O)[O-])CC2)cc1C(C)C.[177Lu+3] (mixture of isomers)  tumour-to-heart ratio (mouse, HT-29 xenograft; 168 h post injection, biodistribution; relative to: tumour over heart uptake): 27.2
C=CC(=O)Nc1cc(Nc2nccc(-c3c[nH]c4ccccc34)n2)c(OC)cc1N(C)CCN(C)C  recovery (storage stability; human dried blood spot; 10 d, -80 °C, HQC level): 106%
Cc1nc(N)nc2c1C(=O)N[C@@H](c1ccc(F)cc1-c1cccc(O[11CH3])n1)C2  tracer uptake (ex vivo biodistribution; healthy mice, spleen; 60 min post-injection, baseline, vehicle pre-treatment): 1 ± 0.2 %ID
OC1(C(F)(F)F)CCN(c2nc(Nc3ccnc(C(F)(F)F)c3)nc(-c3cccc(C(F)(F)F)n3)n2)C1 (stereo not shown)  clearance (monkey, both sexes, plasma; intravenous, 1 mg/kg): 1.89 ± 0.193 mL/min/kg
CCCC[C@H](NC(=O)CNC(=O)CNC(=O)[C@H](CCCCNC(=O)[C@H](CC(N)=O)NC(=O)C(C)c1ccc(CC(C)C)cc1)NC(=O)CN1CCN(CC(=O)O)CCN(CC(=O)O)CCN(CC(=O)O)CC1)C(=O)N[C@H]1CC(=O)NCCCC[C@@H](C(N)=O)NC(=O)[C@H](Cc2c[nH]c3ccccc23)NC(=O)[C@H](CCCNC(=N)N)NC(=O)[C@@H](Cc2ccccc2)NC(=O)[C@H](Cc2c[nH]cn2)NC1=O (stereo partly shown) [lutetium-177 labelled]  tumour-to-tissue ratio (C57 mice, tumour; 2 h; relative to: liver): 2.35
CCC1CNC(CC)CN(C(C(=O)[O-])c2ccc(C(=O)[O-])cc2)C(CC)CN(CC(=O)[O-])C(CC)CN1.[Mn+2] (stereo not shown)  Mn content (ICP-MS; BALB/c mouse, intestine; intravenous, 0.05 mmol/kg, 30 min, without anaesthesia): 13.9 ± 11.2 µg/g
COc1cccc(OC)c1-c1cc(C(=O)NC2(C(=O)O)C3CC4CC(C3)CC2C4)nn1-c1ccc(C(=O)N(C)CCOCCOCCN(C)C(=O)[C@H](CCCCNC(=O)[C@H](CC(C)C)NC(=O)C2OC2C(=O)O)NC(=O)CN2CCN(CC(=O)[O-])CCN(CC(=O)[O-])CCN(CC(=O)[O-])CC2)cc1C(C)C.[177Lu+3] (mixture of isomers)  tumour-to-heart ratio (mouse, HT-29 xenograft; 72 h post injection, biodistribution; relative to: tumour over heart uptake): 19
C=CC(=O)Nc1cc(Nc2nccc(-c3cn(C)c4ccccc34)n2)c(OC)cc1N(C)CCNC  remaining compound (human, plasma; 270 ng/mL, 2 h, on ice, high QC level): 100%
COc1ccc(Nc2nc(Nc3ccc(OCCOCCOCC[18F])cc3)ncc2Br)cc1  uptake ratio (ICR mice, S180 tumour; intravenous, 370 kBq, 60 min; relative to: tumour over bone): 1.02
CC[C@H](C)[C@@H]1NC(=O)[C@H](Cc2ccc(O)cc2)NC(=O)CCCSC[C@@H](C(=O)N(CC(=O)N[C@@H](CC(C)C)C(=O)NCC(N)=O)Cc2ccc(F)cc2)NC(=O)[C@H](CC(N)=O)NC(=O)[C@H](CCC(N)=O)NC1=O  serious adverse events (human; intranasal, 200 µg repeated doses): 0%
COc1ccnc(C(=O)N[C@H]2COC(=O)[C@H](Cc3ccccc3)[C@@H](OC(=O)C(C)C)[C@H](C)OC2=O)c1O  DT50 (aerobic dark soil incubation; silt loam soil; 20 °C, modelling endpoint): 19.7 days
CC(=O)N[C@H](CC(=O)O)C(=O)N[C@H](Cc1c[nH]c2ccccc12)C(=O)N[C@H](Cc1ccccc1)C(=O)N[C@H](CCCCN)C(=O)N[C@H](C)C(=O)N[C@H](Cc1ccccc1)C(=O)N[C@H](Cc1ccc(O)cc1)C(=O)N[C@H](CC(=O)O)C(=O)N[C@H](CCCCN)C(=O)N[C@@H](C(=O)N[C@H](C)C(=O)N[C@H](CCC(=O)O)C(=O)N[C@H](CCCCN)C(=O)N[C@H](Cc1ccccc1)C(=O)N[C@H](CCCCN)C(=O)N[C@H](CCC(=O)O)C(=O)N[C@H](C)C(=O)N[C@H](Cc1ccccc1)C(N)=O)C(C)C  plasma concentration (human, plasma; oral, dose not given, 0.5 h post-dose, day 13): 110 ng/mL
CCCCN1C(=O)c2cccc3c(NCCN4CCOCC4)ccc(c23)C1=O  fluorescence quantum yield (toluene): 0.14
CCCCCCCOc1ccc(CC[C@](N)(CO)COP(=O)(O)O)cc1C(F)(F)F  Tmax (healthy human males, plasma; oral, 0.75 mg, day 21, median): 12 h
CNCc1ccc(-c2cc(=O)c3ccc4[nH]c(C(F)(F)F)nc4c3o2)cc1  t1/2 (ICR mice, brain; intravenous, 2 mg/kg): 1.41 h
O=C(NS(=O)(=O)c1cccs1)c1cc2ccccc2n1Cc1ccc(Br)c2ccccc12  tissue concentration (Sprague-Dawley rat, male, ankle joint tissue; oral, 2 mg/kg, 2 h): 83700 ng/g
O=C(CCc1cn(CCOCCOCCOCC[18F])nn1)Nc1ccc(-c2nnc(-c3ccccn3)nn2)nc1  tumour to blood ratio (PET imaging; BALB/c nude mouse, LS174T xenograft, tumour, heart as blood; intravenous, 1 h, together with: CC49-TCO 72 h before; relative to: tumour over heart): 0.59
C=CC(=O)Nc1cc(Nc2nccc(-c3cn(C4CC4)c4ccccc34)n2)c(OC)cc1N(C)CCNC  relative error (bench-top stability; rat plasma; 1 ng/mL, 3 h, room temperature; relative to: nominal concentration): -9.6%
COCC1CN(C2CCN(c3cc(OC)c(Nc4ncc(Br)c(Nc5ccc6c(c5P(C)(C)=O)OCCO6)n4)cc3C)CC2)C1  serious adverse events (first-in-human trial; human; oral, 30 mg once daily; treatment-related): 0%

Repeated from above:
Cc1cc(C)n(CCN(CCN)CCCCCCNC(=O)[C@@H](N)Cc2c[nH]cn2)n1.[99Tc+].[C-]#[O+].[C-]#[O+].[C-]#[O+]  tumour-to-tissue ratio (BALB/c nude mice A549 xenograft; intravenous, 15 min; relative to: tumour over bone): 7
COC1CN([C@H]2CC[C@H]([C@@]3(C)Oc4c(Cl)cc(C(=O)NCc5c(SC)cc(C)[nH]c5=O)c(C)c4O3)CC2)C1  AUC(0-t) (female CB17 SCID mice, KARPAS-422 xenograft, plasma; 25 mg/kg, day 1): 1990 ng·h/mL
CC(C)C[C@H](NC(=O)[C@@H](CCCCNC(=O)[C@@H](Cc1ccccc1)NC(=O)CCCCCCCNC(=O)CN1CCN(CC(=O)O)CCN(CC(=O)O)CCN(CC(=O)O)CC1)NC(=O)[C@H](Cc1ccc(O)cc1)NC(=O)[C@H](CO)NC(=O)[C@H](Cc1c[nH]c2ccccc12)NC(=O)[C@H](Cc1c[nH]cn1)NC(=O)[C@@H]1CCC(=O)N1)C(=O)N[C@@H](CCCNC(=N)N)C(=O)N1CCC[C@H]1C(=O)NCC(N)=O [indium-111 labelled]  tumour-to-tissue ratio (male athymic nude mice, DU-145 prostate cancer xenograft, tumour; intravenous, 0.037 MBq, 1 h; relative to: tumour over blood): 1.52
C=Cc1c(C)c2cc3nc(c(CC(=O)OCCOCCOCCOC)c4[nH]c(cc5nc(cc1[nH]2)C(C)=C5CC)c(C)c4C(=O)O)[C@@H](CCC(=O)OCCOCCOCCOC)[C@@H]3C  compound loss (LC-MS; methanol-water 9:1; 1 h, pH 8.0): 18%
